Literature values as cited in several papers.
Each line is one published result; not all experiments were run side by side. Numbers after ± are the reported error.
Chain of UniProt Q5U3Y7 (whole entry, looked up): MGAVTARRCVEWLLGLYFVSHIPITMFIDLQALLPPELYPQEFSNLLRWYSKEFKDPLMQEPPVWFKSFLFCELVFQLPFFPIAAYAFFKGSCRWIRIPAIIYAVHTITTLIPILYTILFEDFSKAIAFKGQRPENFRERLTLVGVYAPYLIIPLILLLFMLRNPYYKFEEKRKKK
Chain of UniProt P41595 (whole entry, looked up): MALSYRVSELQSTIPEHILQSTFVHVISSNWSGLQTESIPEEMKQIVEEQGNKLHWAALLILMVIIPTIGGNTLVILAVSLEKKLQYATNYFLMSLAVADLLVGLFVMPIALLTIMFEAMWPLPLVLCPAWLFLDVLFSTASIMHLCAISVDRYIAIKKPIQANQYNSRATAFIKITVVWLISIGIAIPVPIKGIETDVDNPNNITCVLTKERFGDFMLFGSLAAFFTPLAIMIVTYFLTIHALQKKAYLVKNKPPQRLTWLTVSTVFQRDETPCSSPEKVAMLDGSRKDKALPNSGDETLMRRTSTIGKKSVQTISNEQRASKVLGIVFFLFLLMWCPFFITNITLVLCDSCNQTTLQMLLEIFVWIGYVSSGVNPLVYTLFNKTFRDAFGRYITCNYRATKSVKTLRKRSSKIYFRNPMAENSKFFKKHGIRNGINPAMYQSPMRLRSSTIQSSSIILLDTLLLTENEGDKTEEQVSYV
Chain of UniProt P21554 (whole entry, looked up): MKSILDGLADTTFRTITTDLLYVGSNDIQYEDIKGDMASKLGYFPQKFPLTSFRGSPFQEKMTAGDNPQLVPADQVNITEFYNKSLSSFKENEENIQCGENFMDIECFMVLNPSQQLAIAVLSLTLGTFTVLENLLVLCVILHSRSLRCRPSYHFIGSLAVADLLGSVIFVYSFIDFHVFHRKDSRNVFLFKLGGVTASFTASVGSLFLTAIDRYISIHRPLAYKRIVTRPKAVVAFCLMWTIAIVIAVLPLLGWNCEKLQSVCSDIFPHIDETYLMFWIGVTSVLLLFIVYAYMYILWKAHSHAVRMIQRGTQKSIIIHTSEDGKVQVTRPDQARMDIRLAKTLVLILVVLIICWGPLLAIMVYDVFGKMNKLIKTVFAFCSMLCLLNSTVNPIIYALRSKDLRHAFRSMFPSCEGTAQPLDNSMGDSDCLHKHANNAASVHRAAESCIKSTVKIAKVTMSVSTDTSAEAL

Compound = O=[P@]1(S)OC[C@H]2O[C@@H](n3cnc4cc(Cl)c(Cl)cc43)[C@H](O)[C@@H]2O1; tested on = PDE5; assay = cyclic nucleotide hydrolysis, substrate or inhibitor, isothermal titration calorimetry; measurement = Km or Ki; value = 15.1 µM
Compound = CCCCCOc1ccc(-c2cc(-c3ccc(C(=O)N[C@H]4C[C@@H](O)[C@@H](O)NC(=O)[C@@H]5[C@@H](O)[C@@H](C)CN5C(=O)[C@H]([C@H](O)CC(N)=O)NC(=O)[C@H]([C@H](O)[C@@H](O)c5ccc(O)c(OS(=O)(=O)O)c5)NC(=O)[C@@H]5C[C@@H](O)CN5C(=O)[C@H]([C@@H](C)O)NC4=O)cc3)no2)cc1; system = adults with invasive candidiasis; setting = 100 mg daily, steady state; measurement = half-life; value = 14 to 15 h
Compound = COC(=O)Nc1nc2cc(C(=O)c3ccc(F)cc3)ccc2[nH]1; system = faeces; setting = oral, concentration not given; scale = baseline: dose; measurement = unchanged compound in faeces; value = > 85%
Compound = COc1ccc(CN(C(=O)[C@@H](N)Cc2c(C)cc(C(N)=O)cc2C)[C@@H](C)c2nc(-c3ccccc3)c[nH]2)cc1C(=O)O; system = human; setting = 300 mg single radiolabelled dose, 192 h; measurement = dose recovered in urine; value = 0.12%
Compound = O=[N+]([O-])c1cn2c(n1)OC[C@@H](OCc1ccc(OC(F)(F)F)cc1)C2; system = caseum; setting = 5 µM, 4 h, 37 °C; measurement = unbound fraction; value = 7.31 ± 2.2%
Compound = CCNc1nc(Cl)nc(NC(C)C)n1; tested on = Daphnia magna; system = neonates; setting = 48 h; measurement = LC50; value = 78.8 µM
Compound = Cc1ccc(OC(C)(C)C(=O)N[C@@H](C)[C@@H](Cc2ccc(OCCF)cc2)c2cccc(C#N)c2)nc1 [fluorine-18 labelled]; tested on = CNR1 (Homo sapiens, UniProt P21554); assay = PET; system = human, thalamus; measurement = VT; value = 12.6 ± 7.6 mL/cm³
Compound = C=CCN(CC=C)CCc1c[nH]c2ccccc12; tested on = HTR2B (Homo sapiens, UniProt P41595); assay = binding, [3H]LSD displacement; measurement = Ki; value = 0.061 µM
Compound = N[C@@H](Cc1ccc(N(CCCl)CCCl)cc1)C(=O)O; tested on = HGF, HPC, HPLF normal cells; measurement = CC50; value = > 200 µM
Compound = Cc1ncc2n1-c1ccc(Cl)cc1C(c1ccccc1F)=NC2; tested on = CYP3A hepatic; system = healthy human, fed; setting = intravenous, 0.025 mg/kg, cocktail, least squares mean, with: simeprevir 150 mg; scale = baseline: with over without simeprevir; measurement = Cmax ratio; value = 0.78
Compound = C=CCN(CC=C)CCc1c[nH]c2ccc(F)cc12; tested on = Tmem97 (Rattus norvegicus, UniProt Q5U3Y7); measurement = Ki; value = 0.303 µM
Compound = CO[C@H]1/C=C/O[C@@]2(C)Oc3c(C)c(O)c4c(O)c(c(/C=N/N5CCN(C6CCCC6)CC5)c(O)c4c3C2=O)NC(=O)/C(C)=C\C=C\[C@H](C)[C@H](O)[C@@H](C)[C@@H](O)[C@@H](C)[C@H](OC(C)=O)[C@@H]1C; system = caseum; setting = 5 µM, 4 h, 37 °C; measurement = unbound fraction; value = 0.5 ± 0.1%
Compound = O=c1c2nc(Br)n([C@@H]3O[C@@H]4CO[P@@](O)(=S)O[C@H]4[C@H]3O)c2nc2[nH]c(-c3ccccc3)cn12; tested on = PDE6; assay = cyclic nucleotide hydrolysis, substrate or inhibitor, isothermal titration calorimetry; measurement = Km or Ki; value = 13.8 µM
Compound = COc1ccc2c(c1)[C@]13CCCC[C@@H]1[C@H](C2)N(C)CC3; tested on = CYP2D6; assay = substrate; system = healthy subjects, fed; setting = oral, 30 mg, with: simeprevir 150 mg; scale = baseline: with over without simeprevir; measurement = Cmax ratio; value = 1.21
Compound = N#C/N=C1\SCCN1Cc1ccc(Cl)nc1; tested on = Folsomia candida; assay = survival; system = LUFA soil, nominal; measurement = LC50; value = 5 mg/kg dry soil
Compound = COc1c(N2CCNC(C)C2)c(F)cc2c(=O)c(C(=O)O)cn(C3CC3)c12 (centres unmarked); system = caseum; setting = 5 µM, 4 h, 37 °C; measurement = unbound fraction; value = 16.3 ± 4.2%
Compound = Cc1ccc(OCC(=O)N(Cc2cccs2)c2ccn[nH]2)cc1; tested on = CYP3A4 (human); assay = inhibitor; system = pooled human liver microsomes; setting = 10 µM, with: midazolam substrate; measurement = CYP3A4 inhibition; value = inhibited
